Experimental data collected from several papers.
Each line is one published result; not all experiments were run side by side. “And” joins repeats or separate records; there may be more than shown. ± gives the spread as reported.

Under “S phase cells”, `CCNc1cc2c(cc1C)C1(c3cc(C)c(NCC)cc3O2)c2ccccc2C(=O)N1N=Cc1c[c-]c(-c2ccccn2)cc1.Cc1c(C)c(-c2ccc(-c3ccccc3)cc2)[c-](C)c1C.[Cl-].[Ir+3]` is recorded as 30.07 ± 0.2% (A549; PI flow cytometry; 0.25 x IC50, 24 h).
`O=C(C[Se]C(=O)c1cc2ccccc2o1)Nc1cccc(C(F)(F)F)c1` has a mean TGI of 7.28 µM (NCI60 colon subpanel; NCI60 five-dose screen).
For `O=C(O)C1OC(Oc2cc(O)c3c(=O)c(O)c(-c4ccc(O)cc4)oc3c2)C(O)C(O)C1O` (stereo not shown), the Jmax was 12 ± 2.93 pmol/mg/min (MDCKII-UGT1A1/MRP2 cells; glucuronide efflux, substrate).
`N#Cc1cccc(/C=C/C(=O)c2ccc(O)cc2)c1` gave a fold change of 40.2 (U-87 MG; refers to: SLC7A11; concentration not given; reference: untreated).
For `CNS(=O)(=O)Nc1nccc(Cc2c(C)c3ccc(Oc4ncccc4F)cc3oc2=O)c1F`, the IC50 was 32.3 nM (Calu-6; cell viability; 7 days).
The EC50 of `CC(C)n1nc(C(F)F)cc1C(=O)Nc1ccc([C@H]2[C@@H](O)CCCc3cncn32)c(-c2ccccc2)c1` is reported as 99.7 nM (BRD4-HiBiT cells; BRD4 degradation rescue, inhibitor; 8 h, together with: dBET6 500 nM).
Under “log2 fold change”, `Cn1ncc2cc(-c3cncc(Cl)c3N3CCC4(CCNC4=O)CC3)ccc21` is recorded as -4.21 (LS174T; gene expression, microarray, refers to: GDF15 (PDF) mRNA; concentration not given, 24 h; reference: untreated cells).
For `C1=[N+]2CCCC[N+]3=Cc4ccc5[n]4[Au-]23[n]2c1ccc2-c1nc2ccccc2nc1-5.F[P-](F)(F)(F)(F)F`, the TGI was 5.31 -log M (SN12C; NCI60 five-dose screen).
For `COC(=O)c1cc(NC2=NC(=O)C(=Cc3ccc(N(C)C)cc3)S2)ccc1OC(C)=O`, the fold change was 0.288 (MCF7; refers to: RAD51AP1 mRNA; 0.81 µM (IC50), 24 h; reference: DMSO).
With `O=CCNCCOn1c(=O)n(OCCNCCO)c(=O)n(OCCNCCOn2c(=O)n(OCCNCCO)c(=O)n(OCCNCCO)c2=O)c1=O` the viability was 18.5% (A549; cell growth or viability, MTT; 200 µg/mL, 72 h).
For `COc1ccc(NC(=O)c2ccc3[nH]c(-c4ccc(N(C)C)cc4)nc3c2)cn1`, “dead cell to confluence ratio” read 65.6 and 15.4 and 46.7 (HCT116; IncuCyte; concentration not given, 10 h).
For `CC(C)c1ccc(N(C)c2ccc3c(c2)OCC[C@H]3CNc2cnccc2C(=O)O)cc1`, the IC50 was 17.6 nM (Granta-519; cell growth or viability, ATP luminescence; 7 days).
The surface-bound fraction of `COc1cccc(OC)c1-c1cc(C(=O)NC2(C(=O)O)C3CC4CC(C3)CC2C4)nn1-c1ccc(C(=O)N(C)CCOCCN(C)C(=O)[C@H](CCCCNC(=O)[C@H](CC(C)C)NC(=O)C2OC2C(=O)O)NC(=O)CN2CCN(CC(=O)[O-])CCN(CC(=O)[O-])CCN(CC(=O)[O-])CC2)cc1C(C)C.[177Lu+3]` (mixture of isomers) is reported as 3.19 ± 0.32% (HT-29; concentration not given, 120 min; reference: added activity).
`O=C(C[Se]C(=O)c1cc2ccccc2[nH]1)Nc1cccc(C(F)(F)F)c1` — result for “mean growth percent”: -34.6% (NCI60 colon subpanel; cell growth; 10 µM, 48 h, one-dose).
`CC(C)(C)n1cc(CN(Cc2cn(CC(=O)O)nn2)Cc2cn(C(C)(C)C)nn2)nn1` — result for “amount of CuAAC product”: 0.45 pg/µg protein and 0.47 pg/µg protein and 0.55 pg/µg protein (OVCAR-5, HPG-labelled; live-cell CuAAC reaction, LC-ESI-MS/MS; cytosolic proteins; concentration not given, together with: BSO 20 µM, 24 h pretreatment).
Under IL-1β induction, `O=C1Nc2ccccc2C1(c1c[nH]c2ccccc12)c1c[nH]c2ccccc12` is recorded as “increased” (human monocytes; 5 µM; reference: DMSO).
The cytotoxicity of `Cc1ccc(-n2cc(CSc3nc4ccccc4n3Cc3cn(-c4ccc(C)cc4)nn3)nn2)cc1` is reported as 23% (HEK293; MTT; 15.6 ppm).
For `COc1cc([C@@H]2O[C@@H](c3cc(OC)c(O[C@@H]4O[C@H](CO)[C@@H](O)[C@H](O)[C@H]4O)c(OC)c3)[C@H](CO)[C@H]2CO)cc(OC)c1O`, glycerol release read “increased” (3T3-L1 pre-adipocytes; 5 to 20 µM, 48 h).
The GI50 of `Cc1c(Cl)cccc1Nc1ccccc1C(=O)[Se]CC(=O)Nc1cccc(C(F)(F)F)c1` is reported as 2580 nM (NCI60 colon subpanel; NCI60 five-dose screen).
With `CSC(=S)N/N=C(\C)c1ccc(Nc2nnc(-c3ccc(Cl)cc3)c3ccccc23)cc1` the cell death was 76.1% (MCF7; cell growth or viability, MTT; 0.312 µM).
`Cc1ncsc1-c1ccc(C(C)NC(=O)C2CC(O)CN2C(=O)C(NC(=O)CCCCCCCCCCN2CCCC(Nc3ncc(Cl)c(Nc4ccccc4S(=O)(=O)C(C)C)n3)C2)C(C)(C)C)cc1` (stereo not shown) — result for “log2 fold change”: -4.78 (22Rv1; RNA-seq, refers to: SRMS mRNA; concentration not given; reference: DMSO).
The phosphorylation of `C#CCOC(=O)[C@@]1(C)C=C(C(=O)Nc2cccc(C(=O)Nc3ccc(C)c(Nc4nccc(-c5cccnc5)n4)c3)c2)C(=O)CC1` is reported as 0.989 (SH-SY5Y MKK7 ACT; western blot, refers to: c-Jun Ser73; 0.03 µM, 6 h, unit not given, together with: doxycycline; reference: doxycycline without inhibitor).
For `O=C(Nc1nnc2c1c(-c1ccc(Cl)cc1)nc1sc(=Cc3ccco3)c(=O)n12)c1ccccc1` (mixture of isomers), the growth percent was 42.5% (LOX IMVI; NCI60 SRB; 10 µM).
Under “log2 fold change”, `CN1CCCNC(=O)c2cccc(c2)C(=O)NCCCN(C)CCCNc2cccc3c2C(=O)c2cccc(c2C3=O)NCCC1` is recorded as -0.597 (SAS; RNA-Seq, refers to: SMG5 mRNA; 1 µM, 6 h; reference: untreated cells).
`CC(=O)Oc1ccccc1C(=O)[Se]CC(=O)Nc1cccc(C(F)(F)F)c1` gave a mean TGI of 12.2 µM (NCI60 colon subpanel; NCI60 five-dose screen).
`CCOc1cncc(-c2ccc(NC(=O)C3(c4ccnc(NS(=O)(=O)C5CC5)n4)CCOCC3)nc2)n1` has an IC50 of 103 nM (CAL-51; cell growth or viability, ATP luminescence; 72 h).
The colony survival of `COc1ccccc1-c1ccncc1C(=O)Nc1nnc(OCc2ccc(Cl)cc2)s1` is reported as 58.1% and 109% and 67.5% (Brca1 Δ11/Δ11 MEFs with sgGFP; 5 µM, 500 cells/well).
The growth percent of `CN(C)CCN1CCN(c2ccc3nc(-c4ccc5nc(-c6ccc(C(F)(F)F)cc6)[nH]c5c4)[nH]c3c2)CC1` is reported as 64.4% (SN12C; SRB; 10 µM, 48 h).
`CCN(C(=O)c1cc(F)ccc1Oc1nncnc1N1CCC2(C1)CN([C@H](CCCN(C)CCOC)C(C)C)C2)C(C)C` has a GI50 of > 10000 nM (UO-31; cell growth or viability; 7 days).
`O=C(O)C1OC(Oc2c(-c3ccccc3)oc3ccccc3c2=O)C(O)C(O)C1O` (stereo not shown) gave a Jmax of 11 ± 0.76 pmol/mg/min (MDCKII-UGT1A1/MRP2 cells; glucuronide efflux, substrate).
`CCC(=CCc1c(O)cc2c(c1O)C(=O)CC(c1ccc(O)cc1)O2)CC` (stereo not shown) gave a necrotic cells of 4.13 ± 0.31% (HeLa; annexin V/PI staining; 48 µM, 48 h).
`CO[C@@H]1[C@@H](OC(N)=O)[C@@H](O)[C@H](Oc2ccc3c(O)c(NC(=O)c4ccc(O)c(CC=C(C)C)c4)c(=O)oc3c2C)OC1(C)C` gave a colony count of 0.1 (DLD-1 parental; 250 µM, replicate 1).
With `O=C(NCc1cc(F)cc(F)c1)[C@@]1(O)CCN(c2ccc3[nH]ccc3c2)C1=O` the efficacy was 45% (PAXF736; colony formation, soft agar clonogenic; pancreas tumour).
For `CCN(CC)CC(=O)Nc1cccc(-n2cc(-c3ccc4ccc(-c5cn(-c6cccc(NC(=O)CN(CC)CC)c6)nn5)cc4c3)nn2)c1`, the fold regulation was -1.61 (RCC4; PCR angiogenesis array, refers to: IL8; 5 x IC50, 2 h, normoxia; reference: untreated).
`O=C(N1CCCC1)n1cc(-c2ccc(-c3ccccc3)cc2)nn1` has an SILAC ratio of 1.21 (mouse T cells; N-terminal labelling proteomics, refers to: LARP1 N-terminal peptides; 0.001 µM, 6 h; reference: DMSO).
The IC50 of `Cn1ncc(-c2ccc3c(=O)[nH]nc(CN)c3c2)c1-c1c(F)c(Cl)cc(OC2CC2)c1C#N` is reported as 20 nM (LN-18; cell viability, inhibitor, CellTiter-Glo; 120 h, baseline-subtracted).
`C#CCCCC(O)/C=C/C(=O)NC1(c2ccc(-c3nc4ccn5c(=O)[nH]nc5c4cc3-c3ccccc3)cc2)CCC1` (stereo not shown) — result for “cells in S phase”: 27.4% (MDA-MB-468; flow cytometry, PI staining; EC60 concentration, 72 h, DMSO 22.2).

For quick reference, copied from above:
For `O=C(O)C1OC(Oc2cc(O)c3c(=O)c(O)c(-c4ccc(O)cc4)oc3c2)C(O)C(O)C1O` (stereo not shown), the Jmax was 12 ± 2.93 pmol/mg/min (MDCKII-UGT1A1/MRP2 cells; glucuronide efflux, substrate).
`N#Cc1cccc(/C=C/C(=O)c2ccc(O)cc2)c1` gave a fold change of 40.2 (U-87 MG; refers to: SLC7A11; concentration not given; reference: untreated).
For `CNS(=O)(=O)Nc1nccc(Cc2c(C)c3ccc(Oc4ncccc4F)cc3oc2=O)c1F`, the IC50 was 32.3 nM (Calu-6; cell viability; 7 days).
